{"data": "Assay results gathered from unrelated publications", "note": "Compare with care: the assays were run in different laboratories. Several values in a cell are separate wells, animals, samples, runs or records. ± marks the error that the study gave."}
{"Structure (SMILES)": "c1cc2nc(c1)-c1cccc(n1)CCCc1ccc(cc1)OCCCCCCOc1ccc(cc1)CCC2", "tested on": "Caco-2", "test": "cell growth or viability, MTT", "setting": "100 µM, 48 h", "quantity": "viability", "result": "61.9%"}
{"Structure (SMILES)": "O=CCNCCOn1c(=O)n(OCCNCCO)c(=O)n(OCCNCCOn2c(=O)n(OCCNCCO)c(=O)n(OCCNCCO)c2=O)c1=O", "tested on": "HUVEC", "test": "cell growth or viability, MTT", "setting": "25 µg/mL, 48 h", "quantity": "viability", "result": "38.2%"}
{"Structure (SMILES)": "C=C1CC[C@H](OCCCNC(=O)CCOCCOCCOCCOCCOCCOCCOCCOCCOCCOCCOCCOCCOCCOCCOCCOCCOCCOCCOCCOCCOCCOCCOCCOCCOCCOCCOCCOCCOCCOCCOCCOCCOCCOCCOCCOCCNC(=O)CCN2C(=O)CC(SC[C@H](NC(=O)[C@H](Cc3ccccc3)NC(=O)[C@H](CC(N)=O)NC(=O)[C@H](Cc3c[nH]cn3)NC(=O)[C@@H](NC(=O)[C@H](CC(=O)O)NC(=O)[C@H](CCC(N)=O)NC(=O)[C@H](CC(C)C)NC(=O)[C@H](CCCCN)NC(=O)[C@H](CCCCN)NC(=O)[C@H](CCCNC(=N)N)NC(=O)[C@H](CC(C)C)NC(=O)[C@H](Cc3c[nH]c4ccccc34)NC(=O)[C@H](CCC(=O)O)NC(=O)[C@@H](NC(=O)[C@H](CCCNC(=N)N)NC(=O)[C@H](CCC(=O)O)NC(=O)[C@H](CCSC)NC(=O)[C@H](CO)NC(=O)[C@H](CC(N)=O)NC(=O)[C@H](CC(C)C)NC(=O)[C@H](Cc3c[nH]cn3)NC(=O)[C@H](CCCCN)NC(=O)CNC(=O)[C@H](CC(C)C)NC(=O)[C@H](CC(N)=O)NC(=O)[C@H](Cc3c[nH]cn3)NC(=O)[C@H](CCSC)NC(=O)[C@H](CC(C)C)NC(=O)[C@H](CCC(N)=O)NC(=O)[C@@H](NC(=O)[C@H](CCC(=O)O)NC(=O)[C@H](CO)NC(=O)[C@@H](NC(=O)[C@@H](N)CO)C(C)C)[C@@H](C)CC)C(C)C)C(C)C)C(=O)O)C2=O)C/C1=C/C=C1\\CCC[C@]2(C)[C@@H]([C@H](C)CCCC(C)(C)O)CC[C@@H]12 (stereo partly drawn)", "system": "male cynomolgus monkey, plasma", "setting": "subcutaneous, 0.007 mg/kg, single dose", "quantity": "Tmax", "result": "10.7 h"}
{"Structure (SMILES)": "COC1OC(C)C(OC2OC(C)C(O)C(OC3OC(C)C(OC4OC(C)C(O)C(OC5OC(C)C(OC6OC(C)C(O)C(OC7OC(C)C(OC8OC(C)C(O)C(OS(=O)(=O)O)C8OS(=O)(=O)O)C(OS(=O)(=O)O)C7OS(=O)(=O)O)C6OS(=O)(=O)O)C(OS(=O)(=O)O)C5OS(=O)(=O)O)C4OS(=O)(=O)O)C(OS(=O)(=O)O)C3OS(=O)(=O)O)C2OS(=O)(=O)O)C(OS(=O)(=O)O)C1OS(=O)(=O)O (stereo not drawn)", "tested on": "NIH 3T3", "test": "CCK-8", "setting": "concentration not given, 24 h, high concentration", "how to read": "reference: untreated cells", "quantity": "viability", "result": "90.8% and 91.7% and 93.9%"}
{"Structure (SMILES)": "CN1CCCNC(=O)c2cccc(c2)C(=O)NCCCN(C)CCCNc2cccc3c2C(=O)c2cccc(c2C3=O)NCCC1", "tested on": "NHEK", "test": "CCK-8", "setting": "1.5 µM, 48 h", "how to read": "reference: untreated", "quantity": "viability", "result": "62.2%"}
{"Structure (SMILES)": "COc1cc(Oc2c(O)cc(C)c(Br)c2OC)c(C(=O)O)c(C)c1O", "tested on": "A549", "test": "MTT", "setting": "10 or 50 µM, 48 h", "quantity": "viability", "result": "101 ± 2.2%"}
{"Structure (SMILES)": "COC1OC(C)C(OC2OC(C)C(OS(=O)(=O)O)C(OC3OC(C)C(OC4OC(C)C(OS(=O)(=O)O)C(OC5OC(C)C(OC6OC(C)C(OS(=O)(=O)O)C(OC7OC(C)C(OS(=O)(=O)O)C(OS(=O)(=O)O)C7OS(=O)(=O)O)C6OS(=O)(=O)O)C(OS(=O)(=O)O)C5OS(=O)(=O)O)C4OS(=O)(=O)O)C(OS(=O)(=O)O)C3OS(=O)(=O)O)C2OS(=O)(=O)O)C(OS(=O)(=O)O)C1OS(=O)(=O)O (stereo not drawn)", "tested on": "RAW264.7", "test": "CCK-8", "setting": "concentration not given, 24 h, medium concentration", "how to read": "reference: untreated cells", "quantity": "viability", "result": "127% and 110% and 117%"}
{"Structure (SMILES)": "O=C(N/N=C/c1cc[n+](CC2CC2)c2ccccc12)C(=O)N/N=C/c1cc[n+](CC2CC2)c2ccccc12", "tested on": "MYC parallel G4 DNA", "test": "FRET melting", "setting": "1 µM, DNA 0.2 µM, with: duplex DNA competitor 10 µM", "quantity": "ΔTm", "result": "2.7 ± 0.6 °C"}
{"Structure (SMILES)": "CCc1c(-c2ccc3[nH]ncc3c2)cnc(N)c1-c1ccc(O)cc1", "tested on": "CHP-212", "test": "SRB", "setting": "0.1953 µM", "quantity": "viability", "result": "102% and 100%"}
{"Structure (SMILES)": "COC1CN([C@H]2CC[C@H]([C@@]3(C)Oc4c(Cl)cc(C(=O)NCc5c(SC)cc(C)[nH]c5=O)c(C)c4O3)CC2)C1", "test": "RNA-seq, refers to: KIFC3", "system": "human, whole blood", "setting": "dose not given, 24 h", "how to read": "reference: pretreatment baseline", "quantity": "log2 fold change", "result": 2.8}
{"Structure (SMILES)": "CC(=O)OC[C@H]1O[C@@H]([Se]c2ccc([N+](=O)[O-])cc2[N+](=O)[O-])[C@H](OC(C)=O)[C@@H](OC(C)=O)[C@@H]1OC(C)=O", "tested on": "THP-1 macrophages (PMA-differentiated)", "test": "WST-1", "setting": "25 µM, 24 h", "quantity": "viability", "result": "71.8 ± 16.8%"}
{"Structure (SMILES)": "COC1OC(C)C(OS(=O)(=O)O)C(OC2OC(C)C(OS(=O)(=O)O)C(OC3OC(C)C(OS(=O)(=O)O)C(OC4OC(C)C(OS(=O)(=O)O)C(OC5OC(C)C(OS(=O)(=O)O)C(OC6OC(C)C(OS(=O)(=O)O)C(OC7OC(C)C(OS(=O)(=O)O)C(OC8OC(C)C(OS(=O)(=O)O)C(OC9OC(C)C(OS(=O)(=O)O)C(OC%10OC(C)C(OS(=O)(=O)O)C(OS(=O)(=O)O)C%10OS(=O)(=O)O)C9OS(=O)(=O)O)C8OS(=O)(=O)O)C7OS(=O)(=O)O)C6OS(=O)(=O)O)C5OS(=O)(=O)O)C4OS(=O)(=O)O)C3OS(=O)(=O)O)C2OS(=O)(=O)O)C1OS(=O)(=O)O (stereo not drawn)", "tested on": "NIH 3T3", "test": "CCK-8", "setting": "concentration not given, 24 h, high concentration", "how to read": "reference: untreated cells", "quantity": "viability", "result": "102% and 107%"}
{"Structure (SMILES)": "CC(=O)OC[C@H]1O[C@@H]([Se]SC[C@H]2O[C@@H]3OC(C)(C)O[C@@H]3[C@H]3OC(C)(C)O[C@H]32)[C@H](OC(C)=O)[C@@H](OC(C)=O)[C@@H]1OC(C)=O", "tested on": "THP-1 macrophages (PMA-differentiated)", "test": "WST-1", "setting": "25 µM, 24 h", "quantity": "viability", "result": "35.5 ± 4.3%"}
{"Structure (SMILES)": "CC[n+]1cccc2cc(/C=N/NC(=O)c3ccc4ccc(C(=O)N/N=C/c5ccc6c(ccc[n+]6CC)c5)nc4n3)ccc21", "tested on": "MYC parallel G4 DNA", "test": "FRET melting", "setting": "1 µM, DNA 0.2 µM", "quantity": "ΔTm", "result": "10.7 ± 0.1 °C"}
{"Structure (SMILES)": "COc1ccc(Cn2cc(CCO[C@@H]3O[C@H]4[C@H](OC[C@H]4O)[C@H]3O)nn2)cc1", "tested on": "HPAF-II", "test": "cytotoxicity, CellTiter-Glo", "setting": "up to 30 µM, 72 h", "quantity": "viability", "result": "not toxic"}
{"note": "Excerpt of the above:"}
{"Structure (SMILES)": "C=C1CC[C@H](OCCCNC(=O)CCOCCOCCOCCOCCOCCOCCOCCOCCOCCOCCOCCOCCOCCOCCOCCOCCOCCOCCOCCOCCOCCOCCOCCOCCOCCOCCOCCOCCOCCOCCOCCOCCOCCOCCOCCOCCNC(=O)CCN2C(=O)CC(SC[C@H](NC(=O)[C@H](Cc3ccccc3)NC(=O)[C@H](CC(N)=O)NC(=O)[C@H](Cc3c[nH]cn3)NC(=O)[C@@H](NC(=O)[C@H](CC(=O)O)NC(=O)[C@H](CCC(N)=O)NC(=O)[C@H](CC(C)C)NC(=O)[C@H](CCCCN)NC(=O)[C@H](CCCCN)NC(=O)[C@H](CCCNC(=N)N)NC(=O)[C@H](CC(C)C)NC(=O)[C@H](Cc3c[nH]c4ccccc34)NC(=O)[C@H](CCC(=O)O)NC(=O)[C@@H](NC(=O)[C@H](CCCNC(=N)N)NC(=O)[C@H](CCC(=O)O)NC(=O)[C@H](CCSC)NC(=O)[C@H](CO)NC(=O)[C@H](CC(N)=O)NC(=O)[C@H](CC(C)C)NC(=O)[C@H](Cc3c[nH]cn3)NC(=O)[C@H](CCCCN)NC(=O)CNC(=O)[C@H](CC(C)C)NC(=O)[C@H](CC(N)=O)NC(=O)[C@H](Cc3c[nH]cn3)NC(=O)[C@H](CCSC)NC(=O)[C@H](CC(C)C)NC(=O)[C@H](CCC(N)=O)NC(=O)[C@@H](NC(=O)[C@H](CCC(=O)O)NC(=O)[C@H](CO)NC(=O)[C@@H](NC(=O)[C@@H](N)CO)C(C)C)[C@@H](C)CC)C(C)C)C(C)C)C(=O)O)C2=O)C/C1=C/C=C1\\CCC[C@]2(C)[C@@H]([C@H](C)CCCC(C)(C)O)CC[C@@H]12 (stereo partly drawn)", "system": "male cynomolgus monkey, plasma", "setting": "subcutaneous, 0.007 mg/kg, single dose", "quantity": "Tmax", "result": "10.7 h"}
{"Structure (SMILES)": "c1cc2nc(c1)-c1cccc(n1)CCCc1ccc(cc1)OCCCCCCOc1ccc(cc1)CCC2", "tested on": "Caco-2", "test": "cell growth or viability, MTT", "setting": "100 µM, 48 h", "quantity": "viability", "result": "61.9%"}
{"Structure (SMILES)": "COC1CN([C@H]2CC[C@H]([C@@]3(C)Oc4c(Cl)cc(C(=O)NCc5c(SC)cc(C)[nH]c5=O)c(C)c4O3)CC2)C1", "test": "RNA-seq, refers to: KIFC3", "system": "human, whole blood", "setting": "dose not given, 24 h", "how to read": "reference: pretreatment baseline", "quantity": "log2 fold change", "result": 2.8}
